Measured values collected from several papers.
Numbered parts are unrelated; each lists some results of a single study. Values joined by “and” are separate records of one study, mostly repeats; a detail may differ.
Chain of UniProt P78368 (whole entry, looked up): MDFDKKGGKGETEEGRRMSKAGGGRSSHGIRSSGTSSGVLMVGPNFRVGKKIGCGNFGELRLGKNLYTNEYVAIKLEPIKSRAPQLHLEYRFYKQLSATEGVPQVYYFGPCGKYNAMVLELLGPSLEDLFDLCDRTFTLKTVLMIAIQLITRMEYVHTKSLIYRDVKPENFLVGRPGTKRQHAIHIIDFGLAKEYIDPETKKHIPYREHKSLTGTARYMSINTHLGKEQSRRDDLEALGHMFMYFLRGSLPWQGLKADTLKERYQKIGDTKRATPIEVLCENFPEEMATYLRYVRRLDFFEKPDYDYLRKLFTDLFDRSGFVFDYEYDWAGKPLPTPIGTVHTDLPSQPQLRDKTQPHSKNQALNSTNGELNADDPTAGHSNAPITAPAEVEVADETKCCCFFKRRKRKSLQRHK
Chain of UniProt P25098 (whole entry, looked up): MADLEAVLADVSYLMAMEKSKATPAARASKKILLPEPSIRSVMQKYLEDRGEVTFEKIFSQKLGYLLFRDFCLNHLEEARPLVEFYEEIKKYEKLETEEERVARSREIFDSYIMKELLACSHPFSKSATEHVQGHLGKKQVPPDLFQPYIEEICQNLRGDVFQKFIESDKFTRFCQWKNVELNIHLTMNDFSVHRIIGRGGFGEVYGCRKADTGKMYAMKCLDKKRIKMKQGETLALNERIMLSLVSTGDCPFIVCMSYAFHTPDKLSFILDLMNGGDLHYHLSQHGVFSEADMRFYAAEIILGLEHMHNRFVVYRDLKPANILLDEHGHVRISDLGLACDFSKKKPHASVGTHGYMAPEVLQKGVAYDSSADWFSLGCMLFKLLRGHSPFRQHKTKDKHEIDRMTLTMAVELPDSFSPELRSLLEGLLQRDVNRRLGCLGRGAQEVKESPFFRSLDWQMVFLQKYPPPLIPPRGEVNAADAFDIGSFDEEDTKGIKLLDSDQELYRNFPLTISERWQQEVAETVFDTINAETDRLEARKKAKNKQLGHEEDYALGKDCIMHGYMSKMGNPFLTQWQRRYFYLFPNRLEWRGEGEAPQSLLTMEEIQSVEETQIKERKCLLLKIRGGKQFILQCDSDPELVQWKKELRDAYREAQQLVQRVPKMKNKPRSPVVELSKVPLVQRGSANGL
Chain of UniProt Q14289 (whole entry, looked up): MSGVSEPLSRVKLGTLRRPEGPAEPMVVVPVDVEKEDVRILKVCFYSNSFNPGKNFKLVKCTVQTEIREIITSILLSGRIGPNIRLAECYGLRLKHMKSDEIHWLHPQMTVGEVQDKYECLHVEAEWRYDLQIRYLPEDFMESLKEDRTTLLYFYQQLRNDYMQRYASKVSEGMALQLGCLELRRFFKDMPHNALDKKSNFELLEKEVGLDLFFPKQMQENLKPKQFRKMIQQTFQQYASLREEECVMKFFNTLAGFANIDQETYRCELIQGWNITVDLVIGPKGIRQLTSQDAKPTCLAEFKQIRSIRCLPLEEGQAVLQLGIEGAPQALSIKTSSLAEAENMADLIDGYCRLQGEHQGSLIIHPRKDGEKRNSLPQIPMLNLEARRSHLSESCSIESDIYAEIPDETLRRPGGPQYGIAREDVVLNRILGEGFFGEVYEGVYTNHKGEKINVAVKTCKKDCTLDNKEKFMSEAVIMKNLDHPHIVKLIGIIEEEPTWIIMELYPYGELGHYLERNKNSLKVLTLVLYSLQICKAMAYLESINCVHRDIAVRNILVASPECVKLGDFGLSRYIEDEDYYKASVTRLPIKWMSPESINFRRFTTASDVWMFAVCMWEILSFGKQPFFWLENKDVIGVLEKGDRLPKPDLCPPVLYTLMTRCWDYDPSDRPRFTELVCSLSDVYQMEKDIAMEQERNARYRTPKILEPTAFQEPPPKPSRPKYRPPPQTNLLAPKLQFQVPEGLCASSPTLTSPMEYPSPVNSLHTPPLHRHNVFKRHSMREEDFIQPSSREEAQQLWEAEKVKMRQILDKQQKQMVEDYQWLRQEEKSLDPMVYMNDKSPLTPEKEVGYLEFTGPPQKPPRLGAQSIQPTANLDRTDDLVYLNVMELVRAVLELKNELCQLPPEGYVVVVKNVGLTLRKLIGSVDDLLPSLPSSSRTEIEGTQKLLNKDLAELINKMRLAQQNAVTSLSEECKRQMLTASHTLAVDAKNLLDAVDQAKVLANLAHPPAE
Chain of UniProt P27361 (whole entry, looked up): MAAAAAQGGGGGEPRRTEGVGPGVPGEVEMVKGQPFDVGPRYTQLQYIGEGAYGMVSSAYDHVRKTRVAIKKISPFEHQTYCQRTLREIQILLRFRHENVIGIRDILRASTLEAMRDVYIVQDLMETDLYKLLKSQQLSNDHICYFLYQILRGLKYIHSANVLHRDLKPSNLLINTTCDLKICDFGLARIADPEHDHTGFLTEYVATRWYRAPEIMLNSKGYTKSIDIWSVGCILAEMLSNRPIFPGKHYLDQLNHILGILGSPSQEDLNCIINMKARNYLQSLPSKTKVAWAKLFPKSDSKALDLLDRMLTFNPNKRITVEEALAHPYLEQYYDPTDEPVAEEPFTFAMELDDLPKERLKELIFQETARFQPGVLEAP
Chain of UniProt P31152 (whole entry, looked up): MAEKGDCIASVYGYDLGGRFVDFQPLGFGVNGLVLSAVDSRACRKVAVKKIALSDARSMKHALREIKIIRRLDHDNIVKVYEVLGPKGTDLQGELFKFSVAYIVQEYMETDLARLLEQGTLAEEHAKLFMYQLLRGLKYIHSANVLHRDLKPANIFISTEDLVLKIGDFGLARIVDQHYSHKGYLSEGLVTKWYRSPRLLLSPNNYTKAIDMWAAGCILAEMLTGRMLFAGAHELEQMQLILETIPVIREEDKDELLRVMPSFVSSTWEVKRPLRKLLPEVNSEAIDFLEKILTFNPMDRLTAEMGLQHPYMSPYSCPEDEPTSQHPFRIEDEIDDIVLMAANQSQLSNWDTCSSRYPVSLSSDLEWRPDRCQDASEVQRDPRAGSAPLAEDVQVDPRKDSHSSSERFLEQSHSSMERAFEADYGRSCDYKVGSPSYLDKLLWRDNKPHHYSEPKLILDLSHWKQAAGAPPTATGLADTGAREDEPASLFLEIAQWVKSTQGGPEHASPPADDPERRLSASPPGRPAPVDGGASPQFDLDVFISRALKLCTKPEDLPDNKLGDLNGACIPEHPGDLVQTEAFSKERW
Chain of UniProt P54753 (whole entry, looked up): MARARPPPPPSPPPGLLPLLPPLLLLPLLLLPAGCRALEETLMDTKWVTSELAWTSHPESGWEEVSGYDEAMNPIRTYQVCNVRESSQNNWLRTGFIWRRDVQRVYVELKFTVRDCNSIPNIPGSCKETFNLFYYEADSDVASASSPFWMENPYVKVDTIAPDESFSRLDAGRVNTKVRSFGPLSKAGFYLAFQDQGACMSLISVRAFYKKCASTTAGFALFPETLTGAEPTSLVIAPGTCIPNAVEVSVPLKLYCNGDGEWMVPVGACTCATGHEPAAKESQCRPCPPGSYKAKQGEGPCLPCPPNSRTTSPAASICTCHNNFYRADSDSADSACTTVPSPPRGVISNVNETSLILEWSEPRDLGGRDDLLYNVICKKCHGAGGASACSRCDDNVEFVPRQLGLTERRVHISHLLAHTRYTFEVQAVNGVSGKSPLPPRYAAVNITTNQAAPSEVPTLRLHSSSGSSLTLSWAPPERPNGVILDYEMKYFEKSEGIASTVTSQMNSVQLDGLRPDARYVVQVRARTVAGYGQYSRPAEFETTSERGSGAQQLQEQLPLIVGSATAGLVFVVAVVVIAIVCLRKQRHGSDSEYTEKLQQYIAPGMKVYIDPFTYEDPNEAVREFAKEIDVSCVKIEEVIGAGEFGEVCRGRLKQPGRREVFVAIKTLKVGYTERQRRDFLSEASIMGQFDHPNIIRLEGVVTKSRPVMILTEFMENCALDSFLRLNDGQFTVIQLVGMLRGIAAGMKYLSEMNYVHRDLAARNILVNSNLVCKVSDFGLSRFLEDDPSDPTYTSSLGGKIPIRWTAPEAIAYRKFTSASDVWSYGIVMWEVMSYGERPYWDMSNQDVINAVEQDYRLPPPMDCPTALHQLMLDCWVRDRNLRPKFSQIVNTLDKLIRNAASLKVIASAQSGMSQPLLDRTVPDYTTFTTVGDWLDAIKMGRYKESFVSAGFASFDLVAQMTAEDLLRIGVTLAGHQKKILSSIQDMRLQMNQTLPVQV
Chain of UniProt O43353 (whole entry, looked up): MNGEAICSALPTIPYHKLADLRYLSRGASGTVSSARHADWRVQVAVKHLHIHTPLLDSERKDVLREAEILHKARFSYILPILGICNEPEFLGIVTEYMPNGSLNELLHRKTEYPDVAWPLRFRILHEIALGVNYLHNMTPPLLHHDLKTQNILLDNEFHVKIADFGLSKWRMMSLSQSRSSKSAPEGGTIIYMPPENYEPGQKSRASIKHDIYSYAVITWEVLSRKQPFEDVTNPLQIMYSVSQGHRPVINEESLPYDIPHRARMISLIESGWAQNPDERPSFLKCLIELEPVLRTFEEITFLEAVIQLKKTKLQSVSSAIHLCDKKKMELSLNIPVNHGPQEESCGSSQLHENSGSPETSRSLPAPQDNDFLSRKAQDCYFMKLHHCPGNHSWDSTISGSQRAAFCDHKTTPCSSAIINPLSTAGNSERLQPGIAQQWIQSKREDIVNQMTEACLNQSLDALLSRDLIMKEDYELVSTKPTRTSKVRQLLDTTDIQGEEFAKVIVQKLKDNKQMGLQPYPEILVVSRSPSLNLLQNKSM
Chain of UniProt O94768 (whole entry, looked up): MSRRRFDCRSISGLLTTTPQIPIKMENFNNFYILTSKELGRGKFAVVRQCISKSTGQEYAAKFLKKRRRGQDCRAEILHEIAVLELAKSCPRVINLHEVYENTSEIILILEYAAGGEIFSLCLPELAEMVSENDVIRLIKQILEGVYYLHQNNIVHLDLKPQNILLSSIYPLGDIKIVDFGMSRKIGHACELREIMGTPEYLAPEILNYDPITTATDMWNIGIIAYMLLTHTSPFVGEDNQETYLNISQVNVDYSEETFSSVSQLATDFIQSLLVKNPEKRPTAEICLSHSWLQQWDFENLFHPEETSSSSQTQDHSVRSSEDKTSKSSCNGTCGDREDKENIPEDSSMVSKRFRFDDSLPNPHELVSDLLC

Sample 1
SMILES: CSc1cccnc1N1CCN(Cc2nc3ccccc3[nH]2)CC1
Technique: competition with immobilised ligand
Concentration: 1 µM
target	assay	remaining binding [%]
STK38L (Homo sapiens, UniProt Q9Y2H1)	binding	100
MAPK4 (Homo sapiens, UniProt P31152)	cell-free assay	100
STK24 (Homo sapiens, UniProt Q9Y6E0)	cell-free assay	100
GRK2 (Homo sapiens, UniProt P25098)	cell-free assay	93
CSNK1G2 (Homo sapiens, UniProt P78368)	cell-free assay	99
EPHA2 (Homo sapiens, UniProt P29317)	cell-free assay	100
PIP5K1A (Homo sapiens, UniProt Q99755)	cell-free assay	96
EGFR (Homo sapiens, UniProt P00533, G719C)	cell-free assay	96
Tyrosine-protein kinase ABL1, non-phosphorylated (ABL1, Homo sapiens, UniProt P00519, T315I)	cell-free assay	99
FLT3 (Homo sapiens, UniProt P36888, N841I)	cell-free assay	100
PRPF4B (Homo sapiens, UniProt Q13523)	cell-free assay	100
PTK2B (Homo sapiens, UniProt Q14289)	cell-free assay	100
CDK9 (Homo sapiens, UniProt P50750)	cell-free assay	97
EPHB3 (Homo sapiens, UniProt P54753)	cell-free assay	93
MAPK6 (Homo sapiens, UniProt Q16659)	cell-free assay	100
STK17B (Homo sapiens, UniProt O94768)	cell-free assay	100
PIK3CA (Homo sapiens, UniProt P42336, E545A)	cell-free assay	96
FLT3 (Homo sapiens, UniProt P36888, R834Q)	cell-free assay	100
MAPK3 (Homo sapiens, UniProt P27361)	cell-free assay	99
PRKACA (Homo sapiens, UniProt P17612)	cell-free assay	92
MAP3K5 (Homo sapiens, UniProt Q99683)	cell-free assay	98
LRRK2 (Homo sapiens, UniProt Q5S007, G2019S)	cell-free assay	92
FLT4 (Homo sapiens, UniProt P35916)	cell-free assay	100
RIPK2 (Homo sapiens, UniProt O43353)	cell-free assay	100
ALK (Homo sapiens, UniProt Q9UM73)	cell-free assay	70

Sample 2
Compound: Cc1ccc(NC(=O)c2ccnc(C(F)(F)F)c2)cc1-c1cc(OCCO)nc(N2CCOCC2)c1
Concentration: 1 µM
target	assay	remaining binding
CDKL2 (Homo sapiens, UniProt Q92772)	binding, competition with immobilised ligand	96%
Tyrosine-protein kinase ABL1, phosphorylated (ABL1, Homo sapiens, UniProt P00519, E255K)	binding, competition with immobilised ligand	93%
ABL1 (Homo sapiens, UniProt P00519, Q252H)		59% and 99%
CLK3 (Homo sapiens, UniProt P49761)	binding	100%
MARK4 (Homo sapiens, UniProt Q96L34)	binding	100%
NEK11 (Homo sapiens, UniProt Q8NG66)	binding, competition with immobilised ligand	88%
PIK3CG (Homo sapiens, UniProt P48736)	binding	81%

Sample 3
Structure (SMILES): CC(C)C(=O)N1CCN(c2nc(OC[C@@H]3CCCN3C)nc3c2CCN(c2cccc4cccc(Cl)c24)C3)C[C@@H]1CC#N
Effect on: binding
Action: competitor
Technique: NanoBRET
Cell line: HEK293
KRAS Q61L: GTPase KRas (KRAS, Homo sapiens, UniProt P01116, Q61L)
KRAS Q61R: GTPase KRas (KRAS, Homo sapiens, UniProt P01116, Q61R)
target	setting	normalized BRET
KRAS Q61L	137 nM	99.2% and 91.5% and 97.6%
KRAS Q61L	1.69 nM	98% and 103% and 100%
KRAS Q61R	11.1 µM	131% and 114% and 108%
KRAS Q61R	1.69 nM	103% and 92.2% and 102%
KRAS Q61L	3.7 µM	91.8% and 97% and 94.4%

Sample 4
Organism: Sarcocystis neurona
Effect on: parasite growth
Concentration: 10 µM
Setting: secondary screen
Compound	inhibition [%]
CCCCC(=O)O[C@H]1CC[C@H]2[C@@H]3CCc4cc(O)ccc4[C@H]3CC[C@]12C	-44.8
Cc1c(O)c(=O)ccn1C	-38.7
COc1ccc2[nH]c([S+]([O-])Cc3ncc(C)c(OC)c3C)nc2c1 (centres unmarked)	-36.3
COc1c(N2C[C@@H]3CCCN[C@@H]3C2)c(F)cc2c(=O)c(C(=O)O)cn(C3CC3)c12	21.1
Fc1ccc([C@@H]2CCNC[C@H]2COc2ccc3c(c2)OCO3)cc1.O=C(O)/C=C\C(=O)O	-5

Sample 5
Cell line: mouse MPNST tumor cells
Technique: high-content nuclear imaging
Refers to: cell number
Concentration: 10 µM
Time: 12 h
Setting: mean of 2 replicates
Reference: plate mean
Direction: higher = more cells
SMILES	nuclei count
NCCCC(N)(C(=O)O)C(F)F (centres unmarked)	1 z-score
COc1ccccc1CC(=N)N1C[C@@H]2C(=O)CCC(c3ccccc3)(c3ccccc3)[C@@H]2C1	2.25 z-score
O=C(N1CCC(C(c2ccc3c(c2)OCO3)c2ccc3c(c2)OCO3)CC1)n1cncn1	2.41 z-score
O=S(=O)(Cc1ccccc1)Nc1ccc(-c2ccc3c(cnn3-c3ccc(F)cc3)c2)c(C(F)(F)F)c1	4.49 z-score
CCOC(=O)[C@H](C)C[C@@H](Cc1ccc(-c2ccccc2)cc1)NC(=O)CCC(=O)O	1.8 z-score

Sample 6
SMILES: COc1ccc(-c2c(Nc3ccccn3)[nH]c3c(C4=CCCCC4)c(-c4ccccc4)nn3c2=O)cc1
Matrix: plasma
Route: oral
assay	test system	setting	mean plasma concentration [ng/mL]
	human	200 mg once daily, 3 h, cycle 1	6960
	human	400 mg once daily, 4 h, cycle 1	3750
refers to: S-adenosylmethionine	human patients	400 mg once daily, 6 h, cycle 1	20.7
refers to: S-adenosylmethionine	human patients	400 mg once daily, 8 h, cycle 1	20
	human	100 mg once daily, 2 h, cycle 1	4170
refers to: S-adenosylmethionine	human patients	400 mg once daily, 2 h, cycle 1	20.1

A few entries again (sample 4):
Compound	inhibition [%]
CCCCC(=O)O[C@H]1CC[C@H]2[C@@H]3CCc4cc(O)ccc4[C@H]3CC[C@]12C	-44.8
Cc1c(O)c(=O)ccn1C	-38.7
COc1ccc2[nH]c([S+]([O-])Cc3ncc(C)c(OC)c3C)nc2c1 (centres unmarked)	-36.3
COc1c(N2C[C@@H]3CCCN[C@@H]3C2)c(F)cc2c(=O)c(C(=O)O)cn(C3CC3)c12	21.1
Fc1ccc([C@@H]2CCNC[C@H]2COc2ccc3c(c2)OCO3)cc1.O=C(O)/C=C\C(=O)O	-5
